# Results gathered from unrelated publications.
# A part holds a random share of what one study measured.
# Chain of UniProt P11802 (whole entry, looked up): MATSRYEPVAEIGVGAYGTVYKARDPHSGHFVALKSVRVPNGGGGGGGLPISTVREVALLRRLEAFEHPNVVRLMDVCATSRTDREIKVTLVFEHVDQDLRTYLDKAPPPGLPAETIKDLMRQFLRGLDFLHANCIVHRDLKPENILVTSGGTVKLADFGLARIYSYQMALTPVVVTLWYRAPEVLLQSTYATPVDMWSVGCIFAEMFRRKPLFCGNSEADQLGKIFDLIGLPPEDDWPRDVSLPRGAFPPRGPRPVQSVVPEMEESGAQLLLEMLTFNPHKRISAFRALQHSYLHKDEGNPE
# Chain of UniProt O14730 (whole entry, looked up): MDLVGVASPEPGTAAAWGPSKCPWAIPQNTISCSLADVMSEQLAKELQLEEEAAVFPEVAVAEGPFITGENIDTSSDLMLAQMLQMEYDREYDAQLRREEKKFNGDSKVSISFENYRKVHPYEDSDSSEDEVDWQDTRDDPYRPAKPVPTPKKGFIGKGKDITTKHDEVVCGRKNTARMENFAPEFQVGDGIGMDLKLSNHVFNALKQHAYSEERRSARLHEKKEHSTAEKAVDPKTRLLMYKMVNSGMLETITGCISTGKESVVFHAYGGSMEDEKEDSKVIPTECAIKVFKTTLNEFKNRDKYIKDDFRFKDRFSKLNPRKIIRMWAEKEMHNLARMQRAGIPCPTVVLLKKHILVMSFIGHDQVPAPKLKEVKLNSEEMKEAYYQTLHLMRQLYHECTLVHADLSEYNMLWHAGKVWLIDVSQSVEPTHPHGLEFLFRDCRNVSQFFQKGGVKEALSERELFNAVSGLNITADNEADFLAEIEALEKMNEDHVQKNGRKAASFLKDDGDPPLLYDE
# Chain of UniProt O75582 (whole entry, looked up): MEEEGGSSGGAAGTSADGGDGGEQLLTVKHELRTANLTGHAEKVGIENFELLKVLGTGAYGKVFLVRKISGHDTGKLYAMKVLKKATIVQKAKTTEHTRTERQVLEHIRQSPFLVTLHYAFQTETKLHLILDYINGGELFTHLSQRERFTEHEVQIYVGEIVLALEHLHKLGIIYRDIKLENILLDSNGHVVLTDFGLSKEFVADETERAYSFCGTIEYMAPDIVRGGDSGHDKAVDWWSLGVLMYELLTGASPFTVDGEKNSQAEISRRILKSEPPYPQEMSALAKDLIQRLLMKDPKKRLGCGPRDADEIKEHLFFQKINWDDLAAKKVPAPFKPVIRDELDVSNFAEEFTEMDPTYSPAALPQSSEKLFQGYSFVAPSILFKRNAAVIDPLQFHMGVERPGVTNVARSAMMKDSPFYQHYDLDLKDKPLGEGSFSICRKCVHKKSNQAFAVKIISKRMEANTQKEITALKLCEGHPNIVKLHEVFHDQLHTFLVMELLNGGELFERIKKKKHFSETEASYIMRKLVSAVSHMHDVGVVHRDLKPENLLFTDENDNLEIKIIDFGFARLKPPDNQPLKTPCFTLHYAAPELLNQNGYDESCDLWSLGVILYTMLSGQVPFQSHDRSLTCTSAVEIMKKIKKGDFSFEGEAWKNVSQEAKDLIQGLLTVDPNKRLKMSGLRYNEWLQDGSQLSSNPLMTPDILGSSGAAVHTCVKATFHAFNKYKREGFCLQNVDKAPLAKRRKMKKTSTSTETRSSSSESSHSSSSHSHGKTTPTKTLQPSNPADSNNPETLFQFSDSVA
# Chain of UniProt P48729 (whole entry, looked up): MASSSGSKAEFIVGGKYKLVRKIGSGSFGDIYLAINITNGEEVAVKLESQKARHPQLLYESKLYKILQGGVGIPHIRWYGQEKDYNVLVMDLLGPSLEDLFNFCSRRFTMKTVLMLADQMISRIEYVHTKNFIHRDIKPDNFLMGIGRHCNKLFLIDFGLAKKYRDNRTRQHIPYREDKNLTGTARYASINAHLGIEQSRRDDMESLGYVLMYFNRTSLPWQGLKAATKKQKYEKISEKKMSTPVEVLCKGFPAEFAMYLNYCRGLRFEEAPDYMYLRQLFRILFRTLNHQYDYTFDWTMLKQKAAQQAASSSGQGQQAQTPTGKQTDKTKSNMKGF
# Chain of UniProt P22607 (whole entry, unmodified, looked up): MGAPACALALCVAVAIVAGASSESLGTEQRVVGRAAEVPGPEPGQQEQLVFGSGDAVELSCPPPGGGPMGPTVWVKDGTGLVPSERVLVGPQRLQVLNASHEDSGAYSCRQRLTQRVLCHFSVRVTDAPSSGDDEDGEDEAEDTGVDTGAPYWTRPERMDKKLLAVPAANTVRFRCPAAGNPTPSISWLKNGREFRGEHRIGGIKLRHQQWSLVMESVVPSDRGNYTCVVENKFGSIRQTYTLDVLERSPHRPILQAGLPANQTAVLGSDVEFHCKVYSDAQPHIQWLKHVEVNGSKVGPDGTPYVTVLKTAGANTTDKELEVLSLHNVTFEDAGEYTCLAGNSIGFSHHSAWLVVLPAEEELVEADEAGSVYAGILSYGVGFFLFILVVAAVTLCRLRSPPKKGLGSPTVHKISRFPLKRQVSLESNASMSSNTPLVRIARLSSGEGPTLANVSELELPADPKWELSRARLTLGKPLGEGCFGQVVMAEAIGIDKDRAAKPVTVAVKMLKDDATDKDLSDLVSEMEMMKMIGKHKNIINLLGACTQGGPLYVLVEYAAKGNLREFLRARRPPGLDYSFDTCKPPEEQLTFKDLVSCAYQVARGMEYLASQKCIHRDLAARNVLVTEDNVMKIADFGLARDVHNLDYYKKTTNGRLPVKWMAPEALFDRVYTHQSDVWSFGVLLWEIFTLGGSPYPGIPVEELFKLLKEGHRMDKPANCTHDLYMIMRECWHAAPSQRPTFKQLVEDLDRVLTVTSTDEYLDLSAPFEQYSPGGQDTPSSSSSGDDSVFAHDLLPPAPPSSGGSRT
# Chain of UniProt P30530 (whole entry, looked up): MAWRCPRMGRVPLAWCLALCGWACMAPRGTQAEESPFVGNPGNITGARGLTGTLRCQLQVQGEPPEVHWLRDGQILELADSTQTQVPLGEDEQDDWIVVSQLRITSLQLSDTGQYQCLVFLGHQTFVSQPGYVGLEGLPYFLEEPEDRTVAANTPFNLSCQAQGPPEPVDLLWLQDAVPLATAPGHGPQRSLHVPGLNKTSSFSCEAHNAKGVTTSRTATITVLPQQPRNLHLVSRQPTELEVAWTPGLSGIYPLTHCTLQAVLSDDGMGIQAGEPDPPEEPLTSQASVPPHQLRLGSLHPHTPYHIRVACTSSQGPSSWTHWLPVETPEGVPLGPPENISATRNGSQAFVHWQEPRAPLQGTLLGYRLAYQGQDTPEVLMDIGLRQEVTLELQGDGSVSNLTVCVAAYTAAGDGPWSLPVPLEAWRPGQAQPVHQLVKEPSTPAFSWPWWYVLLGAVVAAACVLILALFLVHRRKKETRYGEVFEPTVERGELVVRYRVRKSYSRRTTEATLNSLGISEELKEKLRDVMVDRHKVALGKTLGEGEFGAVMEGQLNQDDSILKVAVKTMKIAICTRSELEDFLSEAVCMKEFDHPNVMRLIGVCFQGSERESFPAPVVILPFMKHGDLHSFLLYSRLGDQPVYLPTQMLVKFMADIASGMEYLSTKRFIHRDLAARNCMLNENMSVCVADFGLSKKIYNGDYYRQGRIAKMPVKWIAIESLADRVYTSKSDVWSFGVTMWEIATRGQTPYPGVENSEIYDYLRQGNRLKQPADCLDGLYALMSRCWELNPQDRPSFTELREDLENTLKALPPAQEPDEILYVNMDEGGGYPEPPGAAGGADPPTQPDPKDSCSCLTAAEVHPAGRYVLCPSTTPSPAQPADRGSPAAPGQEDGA
# Chain of UniProt Q16816 (whole entry, looked up): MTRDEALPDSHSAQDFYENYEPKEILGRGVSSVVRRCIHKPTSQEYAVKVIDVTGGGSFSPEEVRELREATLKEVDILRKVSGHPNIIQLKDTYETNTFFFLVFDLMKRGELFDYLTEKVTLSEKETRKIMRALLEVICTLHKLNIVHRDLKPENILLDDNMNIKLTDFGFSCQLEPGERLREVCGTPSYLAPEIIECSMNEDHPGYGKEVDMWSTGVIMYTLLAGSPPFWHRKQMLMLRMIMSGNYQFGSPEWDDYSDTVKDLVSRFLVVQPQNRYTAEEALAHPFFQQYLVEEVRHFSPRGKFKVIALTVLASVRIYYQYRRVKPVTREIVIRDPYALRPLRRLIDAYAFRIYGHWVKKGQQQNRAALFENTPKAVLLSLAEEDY
# Chain of UniProt Q9H3Y6 (whole entry, looked up): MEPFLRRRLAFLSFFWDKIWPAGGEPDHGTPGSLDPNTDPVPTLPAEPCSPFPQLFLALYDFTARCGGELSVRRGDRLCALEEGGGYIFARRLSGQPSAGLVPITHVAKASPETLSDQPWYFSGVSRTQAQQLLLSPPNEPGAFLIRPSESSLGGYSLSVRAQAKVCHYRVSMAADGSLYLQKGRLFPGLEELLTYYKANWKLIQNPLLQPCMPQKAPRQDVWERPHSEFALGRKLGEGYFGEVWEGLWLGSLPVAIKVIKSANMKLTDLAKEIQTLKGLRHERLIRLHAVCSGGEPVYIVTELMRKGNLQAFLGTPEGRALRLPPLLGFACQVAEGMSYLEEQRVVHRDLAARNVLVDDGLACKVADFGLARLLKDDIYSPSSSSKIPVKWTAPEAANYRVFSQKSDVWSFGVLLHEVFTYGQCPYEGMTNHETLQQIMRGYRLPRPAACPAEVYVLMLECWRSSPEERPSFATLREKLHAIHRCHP
# Chain of UniProt P06493 (whole entry, looked up): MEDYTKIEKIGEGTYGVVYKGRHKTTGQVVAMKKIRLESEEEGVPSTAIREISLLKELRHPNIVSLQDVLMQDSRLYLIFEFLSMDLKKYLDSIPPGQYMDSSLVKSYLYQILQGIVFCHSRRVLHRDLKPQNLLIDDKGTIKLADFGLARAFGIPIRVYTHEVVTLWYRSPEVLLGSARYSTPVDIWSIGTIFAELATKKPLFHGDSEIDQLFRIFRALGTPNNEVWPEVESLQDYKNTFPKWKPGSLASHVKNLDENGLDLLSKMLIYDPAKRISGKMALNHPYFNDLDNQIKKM

# Sample 1
# Compound: Cc1cncc2cccc(S(=O)(=O)N3CCCN(C(=O)CN)C[C@@H]3C)c12
# Observed: enzyme activity
# Mode: inhibitor
# Tested at: 0.5 µM
# Relative to: control
target,remaining activity [%]
"Cyclin-dependent kinase 1, with cyclin B (CDK1, Homo sapiens, UniProt P06493)",96.9
"RPS6KA5 (Homo sapiens, UniProt O75582)",100
"PRKACG (Homo sapiens, UniProt P22612)",112
"EPHA4 (Homo sapiens, UniProt P54764)",99.9
"TSSK2 (Homo sapiens, UniProt Q96PF2)",99.6
"Cyclin-dependent kinase 6, with cyclin D3 (CDK6, Homo sapiens, UniProt Q00534)",104
"PDPK1 (Homo sapiens, UniProt O15530)",97.8
"HIPK2 (Homo sapiens, UniProt Q9H2X6)",90.2
"PHKG1 (Homo sapiens, UniProt Q16816)",65.3
"MAP4K4 (Homo sapiens, UniProt O95819)",87.6
"RPS6KA6 (Homo sapiens, UniProt Q9UK32)",105
"HIPK4 (Homo sapiens, UniProt Q8NE63)",91.1
"MAPKAPK3 (Homo sapiens, UniProt Q16644)",98.8
"STK16 (Homo sapiens, UniProt O75716)",97.9
"Cyclin-dependent kinase 4, with cyclin D3 (CDK4, Homo sapiens, UniProt P11802)",105
"EPHB4 (Homo sapiens, UniProt P54760)",85.1
"CAMK2B (Homo sapiens, UniProt Q13554)",92.4
"WNK3 (Homo sapiens, UniProt Q9BYP7)",97.3
"SRMS (Homo sapiens, UniProt Q9H3Y6)",106
"AXL (Homo sapiens, UniProt P30530)",98.8
"DYRK3 (Homo sapiens, UniProt O43781)",107
"BLK (Homo sapiens, UniProt P51451)",97.7
"EPHB1 (Homo sapiens, UniProt P54762)",88.7

# Sample 2
# Structure (SMILES): O=C(NCc1ncc(C(F)(F)F)cc1Cl)c1ccc2c(c1)C1(CCS(=O)(=O)CC1)[C@@H](C1CC1)N2S(=O)(=O)c1ccc(F)cc1
# Tested at: 1 µM
target,observed,technique,remaining binding
"FER (Homo sapiens, UniProt P16591)",cell-free assay,competition with immobilised ligand,100%
"FLT3 (Homo sapiens, UniProt P36888, D835H)",cell-free assay,competition with immobilised ligand,100%
"CDC42BPG (Homo sapiens, UniProt Q6DT37)",,competition binding,93%
"FGFR3 (Homo sapiens, UniProt P22607, G697C)",cell-free assay,competition with immobilised ligand,80%
"CAMK2A (Homo sapiens, UniProt Q9UQM7)",cell-free assay,competition with immobilised ligand,90%
"CDK4 (Homo sapiens, UniProt P11802)",cell-free assay,competition with immobilised ligand,82%
"Tyrosine-protein kinase ABL1, phosphorylated (ABL1, Homo sapiens, UniProt P00519, Q252H)",cell-free assay,competition with immobilised ligand,87%
"TIE1 (Homo sapiens, UniProt P35590)",cell-free assay,competition with immobilised ligand,95%
"CSNK1G1 (Homo sapiens, UniProt Q9HCP0)",cell-free assay,competition with immobilised ligand,90%
"CSNK1A1 (Homo sapiens, UniProt P48729)",cell-free assay,competition with immobilised ligand,81%
"FLT3 (Homo sapiens, UniProt P36888, R834Q)",cell-free assay,competition with immobilised ligand,84%
"Ribosomal protein S6 kinase alpha-2, C-terminal kinase domain (RPS6KA2, Homo sapiens, UniProt Q15349)",cell-free assay,competition with immobilised ligand,100%
"Tyrosine-protein kinase ABL1, phosphorylated (ABL1, Homo sapiens, UniProt P00519, E255K)",binding,competition with immobilised ligand,100%
"MAP4K3 (Homo sapiens, UniProt Q8IVH8)",cell-free assay,competition with immobilised ligand,100%
"PHKG2 (Homo sapiens, UniProt P15735)",cell-free assay,competition with immobilised ligand,84%
"RIOK3 (Homo sapiens, UniProt O14730)",cell-free assay,competition with immobilised ligand,72%
"FLT3 (Homo sapiens, UniProt P36888, N841I)",cell-free assay,competition with immobilised ligand,78%
"CHEK1 (Homo sapiens, UniProt O14757)",cell-free assay,competition with immobilised ligand,100%
"PDGFRA (Homo sapiens, UniProt P16234)",cell-free assay,competition with immobilised ligand,87%
"TRPM6 (Homo sapiens, UniProt Q9BX84)",cell-free assay,competition with immobilised ligand,92%

# Sample 3
# Cell line: A-375
# Tested at: 100 µM
# Time: 18 h
Structure (SMILES),viability [%]
COc1cc2nc(N(C)CCCNC(=O)C3CCCO3)nc(N)c2cc1OC (stereo not drawn),87.3
CN1C(C(=O)Nc2ccccn2)=C(O)c2ccccc2S1(=O)=O,80.5
O=C(O)c1cc(=O)c2c(OCC(O)COc3cccc4oc(C(=O)O)cc(=O)c34)cccc2o1,90
O=C(O)[C@@H]1CSCN1,81.1
NC(CO)(CO)CO,94.9
O=C(O)c1ccccc1C(=O)Nc1ccc(S(=O)(=O)Nc2nccs2)cc1,86
CO[C@H]1O[C@@H]2O[C@@]3(C)CC[C@H]4[C@H](C)CC[C@@H]([C@H]1C)[C@@]24OO3,68.1
O=C1CN(/N=C/c2ccc(-c3ccc([N+](=O)[O-])cc3)o2)C(O)=N1,86.2
CCCCCCCCN=c1ccn(CCCCCCCCCCn2ccc(=NCCCCCCCC)cc2)cc1,8.88
NC(=O)CC[C@H](N)C(=O)O,100
CO[C@@]1(NC(=O)CSCC#N)C(=O)N2C(C(=O)O)=C(CSc3nnnn3C)CS[C@@H]21,96.5
COc1ccc([C@@H]2OC[C@H]3[C@@H]2CO[C@@H]3c2ccc(O[C@@H]3O[C@H](CO)[C@@H](O)[C@H](O)[C@H]3O)c(OC)c2)cc1OC,103
OC[C@H]1O[C@H](OC[C@H]2O[C@H](OC[C@H]3O[C@H](O[C@]4(CO)O[C@H](CO)[C@@H](O)[C@@H]4O)[C@H](O)[C@@H](O)[C@@H]3O)[C@H](O)[C@@H](O)[C@H]2O)[C@H](O)[C@@H](O)[C@H]1O,76.1
O=S(=O)(O)CCSSCCS(=O)(=O)O,92.5
O=c1[nH]cc(F)c(=O)[nH]1,91
Cc1nnc(NS(=O)(=O)c2ccc(N)cc2)s1,97.4
O=P(O)(O)C(O)(Cn1ccnc1)P(=O)(O)O,99.7

# Sample 4
# Target: Diamine acetyltransferase 1 (Homo sapiens, UniProt P21673)
# Mode: inhibitor
# Tested at: 10 µM
# Relative to: control
# Residues (P21673 1-171): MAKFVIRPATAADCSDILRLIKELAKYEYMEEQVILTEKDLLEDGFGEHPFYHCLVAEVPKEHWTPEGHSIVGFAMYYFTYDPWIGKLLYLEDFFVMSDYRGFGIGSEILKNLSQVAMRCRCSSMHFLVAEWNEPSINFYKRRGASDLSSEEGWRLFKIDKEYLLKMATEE
Structure (SMILES),remaining activity
O=C(O)c1cc(O)c2c(c1)C(=O)c1cccc(O)c1C2=O,75.7%
COc1cc(O)cc2c1C(=O)C[C@@H](c1ccccc1)O2,98.5%
COc1c2ccoc2cc2oc(=O)ccc12,100%
CCCCCCCCCCCCCCCCO,80.6%
C=C(C)[C@@H]1CC[C@]2(C)CC[C@]3(C)[C@H](CC[C@@H]4[C@@]5(C)CC[C@H](O)C(C)(C)[C@@H]5CC[C@]43C)[C@@H]12,88.4%
O=C(/C=C/c1ccc(O)c2c1[C@H](C(=O)O)[C@@H](c1ccc(O)c(O)c1)O2)O[C@H](Cc1ccc(O)c(O)c1)C(=O)O,72%
O=C1CC[C@@H](C(=O)O)N1,85.4%
CCCCC/C=C\C/C=C\CCCCCCCC(=O)O,89.4%
CCC/C=C/C=O,105%
COc1ccc(/C=C/C(=O)/C=C(O)/C=C/c2ccc(OC)c(OC)c2)cc1OC,96.4%
COc1cc2c[n+](C)c3c4cc5c(cc4ccc3c2cc1OC)OCO5,106%
O=C(/C=C/c1ccc(O)c(O)c1)O[C@@H]1C[C@](O)(C(=O)O)C[C@@H](O)[C@H]1O,93.5%
NC(N)=NCCC[C@H](N)C(=O)O,81.9%
C[C@@H](N)C(=O)O,102%
Cc1cc(O)c2c(c1)C(=O)c1cc(O)cc(O[C@@H]3O[C@H](CO)[C@@H](O)[C@H](O)[C@H]3O)c1C2=O,97.2%
O=c1cc(-c2ccccc2)oc2cc(O)cc(O)c12,100%
COc1ccc(CC(=O)O)cc1OC,79.5%
COc1c2ccoc2nc2c(O)cccc12,98.8%
